Assay results pooled from the literature.
Lines come from different studies, so protocols differ.

SMILES | assay | system | conditions | half-life [h]
COc1cc([C@@H]2[C@H]3CO[C@@]4(O)C(=O)[C@@H]2C=C([C@H]2Oc5cc(O)cc(O)c5C(=O)[C@@H]2O)[C@@H]34)ccc1O |  | FVB wild-type mice, plasma | oral gavage, 500 mg/kg silymarin | 7.7
Cc1c(C(=O)O)ccc2c3n(nc12)[C@@H]1[C@H](C3)N(CC2CC2)[C@@]2(C(=O)Nc3cc(Cl)ccc32)[C@H]1c1cccc(Cl)c1F |  | female BALB/c nude mice, SJSA-1 xenograft, plasma | oral, 1 mg/kg twice daily, 2 doses, mean | 9.3
FC(F)(F)CN1CC(n2cc(Oc3ccn4nc(Cl)cc4n3)cn2)C1 |  | FVB mice, blood | oral | 1.8
Nc1ncn([C@H]2C[C@H](O)[C@@H](CO)O2)c(=O)n1 | UHPLC-MS/MS | C57BL/6 mice, female, plasma | oral, 0.4 mg/kg | 0.94
c1ccc(-c2nc(N3CCC(c4ccccn4)C3)c3ccccc3n2)nc1 (centres unmarked) |  | female Balb/c mice, plasma | intravenous, 2 mg/kg, added: ABT 2 h prior | 2.3
COc1cc([C@@H]2Oc3ccc([C@H]4Oc5cc(O)cc(O)c5C(=O)[C@@H]4O)cc3O[C@H]2CO)ccc1O |  | FVB wild-type mice, plasma | oral gavage, 500 mg/kg silymarin | 0.38
CCN(c1cc(-c2ccc(CN3CCOCC3)cc2)cc(C(=O)NCc2c(C)cc(C)[nH]c2=O)c1C)C1CCOCC1 |  | female CB17 SCID mice, HT-1376 xenograft, plasma | 75 mg/kg, day 1 | 1.43
CCN1CCN(Cc2ccc(NC(=O)c3ccc(C)c(NC(=O)c4cncc(-c5cccs5)c4)c3)cc2C(F)(F)F)CC1 |  | C57BL/6 mice, epithelial lining fluid | intraperitoneal, 20 mg/kg | 1.87
COc1cc([C@H]2Oc3cc([C@H]4Oc5cc(O)cc(O)c5C(=O)[C@@H]4O)ccc3O[C@@H]2CO)ccc1O |  | FVB wild-type mice, plasma | oral gavage, 500 mg/kg silymarin | 0.34
COc1cccc2c(N3CCC(CCP(=O)(O)O)CC3)ncnc12 | LC-MS | female mice, MC-38 subcutaneous tumour, serum | 50 mg/kg | 2.6
Cc1cc2sc(N)nc2c2cccnc12 |  | BALB/c mice, female, plasma | intraperitoneal, 30 mg/kg | 2.84
